Measured values of several laboratories.
Parts stem from different laboratories: compare values within a part only.
Chain of UniProt O94806 (whole entry, looked up): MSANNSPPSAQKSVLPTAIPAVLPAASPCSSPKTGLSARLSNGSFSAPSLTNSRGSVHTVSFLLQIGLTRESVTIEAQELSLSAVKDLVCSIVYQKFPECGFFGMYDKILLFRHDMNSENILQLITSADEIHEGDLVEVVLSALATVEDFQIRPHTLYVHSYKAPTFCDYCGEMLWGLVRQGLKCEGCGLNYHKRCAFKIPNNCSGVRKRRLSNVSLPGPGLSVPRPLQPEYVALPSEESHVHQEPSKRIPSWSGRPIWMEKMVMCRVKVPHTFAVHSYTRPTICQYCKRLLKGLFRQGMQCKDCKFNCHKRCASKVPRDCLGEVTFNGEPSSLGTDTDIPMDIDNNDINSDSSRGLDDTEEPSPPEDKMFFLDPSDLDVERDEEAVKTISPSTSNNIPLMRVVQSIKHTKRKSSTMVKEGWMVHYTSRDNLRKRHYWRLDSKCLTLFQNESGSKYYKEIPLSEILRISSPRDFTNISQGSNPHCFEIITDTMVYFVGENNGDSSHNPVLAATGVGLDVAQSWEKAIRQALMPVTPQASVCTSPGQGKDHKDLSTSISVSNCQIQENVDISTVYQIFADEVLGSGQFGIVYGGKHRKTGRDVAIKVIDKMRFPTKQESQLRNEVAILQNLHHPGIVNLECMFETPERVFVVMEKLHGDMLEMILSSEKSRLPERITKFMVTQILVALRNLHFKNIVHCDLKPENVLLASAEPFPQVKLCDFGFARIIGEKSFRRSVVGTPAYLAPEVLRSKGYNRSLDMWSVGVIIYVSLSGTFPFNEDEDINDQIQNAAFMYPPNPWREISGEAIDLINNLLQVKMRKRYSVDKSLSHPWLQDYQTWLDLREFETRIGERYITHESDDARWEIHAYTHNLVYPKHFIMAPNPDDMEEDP
Chain of UniProt Q8N5S9 (whole entry, looked up): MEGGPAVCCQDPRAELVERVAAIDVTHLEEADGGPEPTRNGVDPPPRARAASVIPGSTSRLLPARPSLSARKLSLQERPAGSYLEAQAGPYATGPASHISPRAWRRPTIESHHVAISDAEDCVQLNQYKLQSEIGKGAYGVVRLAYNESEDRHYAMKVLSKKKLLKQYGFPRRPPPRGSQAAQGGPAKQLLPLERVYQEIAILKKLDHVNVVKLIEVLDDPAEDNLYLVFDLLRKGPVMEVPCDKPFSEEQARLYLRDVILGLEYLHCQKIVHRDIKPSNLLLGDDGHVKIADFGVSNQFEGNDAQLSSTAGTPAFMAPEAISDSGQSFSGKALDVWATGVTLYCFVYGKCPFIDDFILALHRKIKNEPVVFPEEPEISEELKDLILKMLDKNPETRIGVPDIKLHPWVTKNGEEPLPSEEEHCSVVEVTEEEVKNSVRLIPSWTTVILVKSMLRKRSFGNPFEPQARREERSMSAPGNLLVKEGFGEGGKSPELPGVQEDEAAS
Chain of UniProt P07949 (whole entry, unmodified, looked up): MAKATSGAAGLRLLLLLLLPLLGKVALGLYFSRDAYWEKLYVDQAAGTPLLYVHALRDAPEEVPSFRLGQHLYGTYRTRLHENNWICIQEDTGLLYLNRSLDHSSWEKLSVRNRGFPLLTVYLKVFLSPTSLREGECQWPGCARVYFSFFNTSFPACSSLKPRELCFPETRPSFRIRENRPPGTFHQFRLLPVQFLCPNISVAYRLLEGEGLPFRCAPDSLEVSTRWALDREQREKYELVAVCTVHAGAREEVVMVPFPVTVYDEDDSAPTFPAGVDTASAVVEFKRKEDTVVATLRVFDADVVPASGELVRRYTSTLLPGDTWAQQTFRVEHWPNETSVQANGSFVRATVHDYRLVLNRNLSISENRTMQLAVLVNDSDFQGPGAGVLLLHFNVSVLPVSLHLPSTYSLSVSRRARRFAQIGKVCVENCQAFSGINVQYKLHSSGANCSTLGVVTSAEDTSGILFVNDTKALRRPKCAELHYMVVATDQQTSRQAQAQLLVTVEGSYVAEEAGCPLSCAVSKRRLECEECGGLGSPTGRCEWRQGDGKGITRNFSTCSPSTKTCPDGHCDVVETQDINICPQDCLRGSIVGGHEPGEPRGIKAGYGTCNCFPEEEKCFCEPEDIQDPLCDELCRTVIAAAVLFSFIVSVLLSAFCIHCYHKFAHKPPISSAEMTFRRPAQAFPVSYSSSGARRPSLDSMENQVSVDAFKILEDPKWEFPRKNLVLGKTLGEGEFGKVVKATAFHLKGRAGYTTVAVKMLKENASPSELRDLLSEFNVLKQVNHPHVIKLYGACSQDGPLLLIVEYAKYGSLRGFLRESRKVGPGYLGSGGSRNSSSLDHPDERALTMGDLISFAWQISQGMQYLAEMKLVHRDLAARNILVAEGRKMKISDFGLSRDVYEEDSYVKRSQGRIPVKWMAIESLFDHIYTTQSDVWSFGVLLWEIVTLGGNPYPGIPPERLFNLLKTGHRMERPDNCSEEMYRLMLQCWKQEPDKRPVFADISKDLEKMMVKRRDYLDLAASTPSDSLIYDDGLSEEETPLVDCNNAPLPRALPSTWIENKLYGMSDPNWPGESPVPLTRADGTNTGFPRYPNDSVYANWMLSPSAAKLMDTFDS
Chain of UniProt P48730 (whole entry, looked up): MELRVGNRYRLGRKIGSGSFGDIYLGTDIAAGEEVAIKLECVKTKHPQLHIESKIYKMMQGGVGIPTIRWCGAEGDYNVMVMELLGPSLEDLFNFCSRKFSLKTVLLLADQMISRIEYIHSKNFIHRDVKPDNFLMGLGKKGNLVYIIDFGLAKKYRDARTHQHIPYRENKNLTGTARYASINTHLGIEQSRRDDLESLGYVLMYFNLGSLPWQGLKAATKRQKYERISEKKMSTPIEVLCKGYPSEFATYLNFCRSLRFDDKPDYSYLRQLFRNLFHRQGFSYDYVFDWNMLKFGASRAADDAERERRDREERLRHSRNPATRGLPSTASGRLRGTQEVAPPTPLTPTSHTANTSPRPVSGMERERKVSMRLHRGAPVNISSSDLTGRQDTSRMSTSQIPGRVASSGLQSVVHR
Chain of UniProt Q14680 (whole entry, looked up): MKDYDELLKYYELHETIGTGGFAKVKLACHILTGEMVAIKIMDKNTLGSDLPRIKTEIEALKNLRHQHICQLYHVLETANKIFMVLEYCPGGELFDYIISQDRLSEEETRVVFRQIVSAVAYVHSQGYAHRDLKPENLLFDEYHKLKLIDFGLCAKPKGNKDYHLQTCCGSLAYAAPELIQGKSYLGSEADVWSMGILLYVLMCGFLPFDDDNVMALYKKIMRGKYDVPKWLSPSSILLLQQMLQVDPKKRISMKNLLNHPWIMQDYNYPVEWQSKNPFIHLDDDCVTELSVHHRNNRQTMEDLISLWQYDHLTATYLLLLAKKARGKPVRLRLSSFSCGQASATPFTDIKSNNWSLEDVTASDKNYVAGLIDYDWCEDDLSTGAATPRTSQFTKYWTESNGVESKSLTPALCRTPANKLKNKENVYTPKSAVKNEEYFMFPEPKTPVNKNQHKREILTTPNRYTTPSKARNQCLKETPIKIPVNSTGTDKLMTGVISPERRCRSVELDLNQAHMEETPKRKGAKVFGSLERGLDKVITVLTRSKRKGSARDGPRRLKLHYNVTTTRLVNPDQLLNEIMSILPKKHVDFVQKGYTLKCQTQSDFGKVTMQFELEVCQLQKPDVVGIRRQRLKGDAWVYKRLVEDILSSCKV

Block 1 — SMILES: O=c1cc(N2CCOCC2)oc2c1ccc1ccccc12; effect on: enzyme activity; action: inhibitor; concentration: 0.5 µM; reference: control
target | remaining activity [%]
Ribosomal protein S6 kinase alpha-3 (RPS6KA3, Homo sapiens, UniProt P51812) | 104
Dual specificity protein kinase CLK2 (CLK2, Homo sapiens, UniProt P49760) | 101
Cyclin-dependent kinase 2, with cyclin E (CDK2, Homo sapiens, UniProt P24941) | 119
Calcium/calmodulin-dependent protein kinase type 1 (CAMK1, Homo sapiens, UniProt Q14012) | 111
Receptor tyrosine-protein kinase erbB-2 (ERBB2, Homo sapiens, UniProt P04626) | 105
Tyrosine-protein kinase Fes/Fps (FES, Homo sapiens, UniProt P07332) | 100
Maternal embryonic leucine zipper kinase (MELK, Homo sapiens, UniProt Q14680) | 103
Protein kinase C theta type (PRKCQ, Homo sapiens, UniProt Q04759) | 90.6
Serine/threonine-protein kinase BRSK2 (BRSK2, Homo sapiens, UniProt Q8IWQ3) | 92.6
Cyclin-dependent kinase 5, with p35 (CDK5, Homo sapiens, UniProt Q00535) | 96.7
Serine/threonine-protein kinase PAK 4 (PAK4, Homo sapiens, UniProt O96013) | 108
Casein kinase I isoform epsilon (CSNK1E, Homo sapiens, UniProt P49674) | 92.5
Mitogen-activated protein kinase kinase kinase 20 (MAP3K20, Homo sapiens, UniProt Q9NYL2) | 98
Vascular endothelial growth factor receptor 1 (FLT1, Homo sapiens, UniProt P17948) | 95.5
Activin receptor type-1-like (ACVRL1, Homo sapiens, UniProt P37023) | 100
Casein kinase I isoform delta (CSNK1D, Homo sapiens, UniProt P48730) | 97.9
Calcium/calmodulin-dependent protein kinase kinase 1 (CAMKK1, Homo sapiens, UniProt Q8N5S9) | 112
Serine/threonine-protein kinase PAK 6 (PAK6, Homo sapiens, UniProt Q9NQU5) | 92
Serine/threonine-protein kinase pim-1 (PIM1, Homo sapiens, UniProt P11309) | 54.8

Block 2 — host: human; matrix: microsomes or S9; concentration: 2 µM; time: 0.5 h
SMILES | remaining compound
O=c1c2cc3c(=O)n(-c4ccccc4)ccc3nc2ccn1CCO | > 100%
CC(C)c1cc(C(C)C)c(S(=O)(=O)NCCCO)c(C(C)C)c1 | 1.82%
Cc1nnc(C)n1/N=C/c1ccc(Br)cc1 | 93.5%
COC(=O)c1cc(F)c(NCCCN(CCCCN(CCCn2c(=O)[nH]c3cc(F)c(F)cc3c2=O)C(=O)OC(C)(C)C)C(=O)OC(C)(C)C)cc1NC(=O)NCCCN(CCCCN(CCCn1c(=O)[nH]c2cc(F)c(F)cc2c1=O)C(=O)OC(C)(C)C)C(=O)OC(C)(C)C | > 99.9%
CC(=O)NCCc1ccc(S(=O)(=O)N(C)C)cc1 | > 99%
Brc1cccc(-c2cnc3n2CCCCC3)c1 | 1.05%
Cc1cccc(C(=O)/N=c2\c(C)cccn2C(=O)c2cccc(C)c2)c1 | 83.1%
Cc1ccc(-c2nccn3cc(C(=O)N(C)Cc4cn(C)nc4C)nc23)cc1 | 25.7%

Block 3 — matrix: hydrocarbon/water
Compound | logD
CCCN1CC(=O)N[C@@H](CC(C)C)C(=O)N2CCC[C@@H]2C(=O)N(C)[C@@H](C)C(=O)N[C@@H](CC(C)C)C(=O)N(C)[C@@H](C)C(=O)N[C@@H](CC(C)C)C(=O)N(C)Cc2cn(nn2)CC(=O)N[C@@H](CC(C)C)C1=O | -0.12
CCOC(=O)[C@@H]1CSCC(=O)N[C@@H](CC)C(=O)N(C)[C@@H](C)C(=O)N[C@H](CC(C)C)C(=O)N2CCC[C@H]2C(=O)N(CC(C)C)CC(=O)N[C@@H](CC(C)C)C(=O)N(C)[C@H](C)C(=O)N[C@@H](CC(C)C)C(=O)N1C | 0.628
CCOC(=O)[C@@H]1CSCC(=O)N[C@H](CC)C(=O)N(CC(C)C)CC(=O)N[C@@H](CC(C)C)C(=O)N(C)[C@H](C)C(=O)N(C)[C@@H](C)C(=O)N[C@H](CC(C)C)C(=O)N(C)[C@H](C)C(=O)N[C@@H](CC(C)C)C(=O)N1C | 1.51

Block 4 — concentration: 1 µM
SMILES: CCC(=O)N[C@H]1CC[C@@H](C(=O)N(C)c2ccc(-c3nc4ccccc4o3)cc2)C1
target | test | remaining binding [%]
Tyrosine-protein kinase FRK (FRK, Homo sapiens, UniProt P42685) | cell-free assay, competition with immobilised ligand | 100
Serine/threonine-protein kinase D3 (PRKD3, Homo sapiens, UniProt O94806) | cell-free assay, competition with immobilised ligand | 100
Dual specificity mitogen-activated protein kinase kinase 7 (MAP2K7, Homo sapiens, UniProt O14733) | cell-free assay, competition with immobilised ligand | 82
Mitogen-activated protein kinase kinase kinase 13 (MAP3K13, Homo sapiens, UniProt O43283) | cell-free assay, competition with immobilised ligand | 87
Mitogen-activated protein kinase 15 (MAPK15, Homo sapiens, UniProt Q8TD08) | cell-free assay, competition with immobilised ligand | 100
Serine/threonine-protein kinase SIK1 (SIK1, Homo sapiens, UniProt P57059) | competition binding | 89
Proto-oncogene tyrosine-protein kinase receptor Ret (RET, Homo sapiens, UniProt P07949, M918T) | cell-free assay, competition with immobilised ligand | 100

Other studies, line by line
SMILES | target | test | quantity | value
C[C@@H]1CN(c2ccc(-c3cc(C(=O)NCCOCCOCCOCCOCCNC(=O)Cn4cc(-c5[nH]cc(C(=O)N[C@@H](CC(N)=O)c6ccc(F)c(Cl)c6)c5-c5ccc(Cl)cc5F)cn4)ccc3F)cc2NC(=O)c2c[nH]c(=O)cc2C(F)(F)F)C[C@H](C)N1C | DDB1- and CUL4-associated factor 1 (DCAF1, Homo sapiens, UniProt Q9Y4B6) | SPR | dissociation rate constant | 0.0069 s⁻¹
